Published values pooled from the literature.
Each line is one published result; not all experiments were run side by side. Several values in a cell are separate wells, animals, samples, runs or records. ± gives the spread as reported. In brackets after ≈: the same amount, converted by molar mass.

COc1ccc(/C=C/c2nc3c(Nc4ccc(Cl)cc4)ncnc3[nH]2)cc1OC
purity (HPLC; solution; after 1 h light exposure): 99.7%

O=C(O)CCCOc1ccc([18F])cc1-c1cc(-c2ccccc2C(F)(F)F)n(-c2ccccc2)n1
radiochemical purity (formulated product; 3 h after synthesis end, room temperature): 99.3 ± 0.4%

CCCCN1C(=O)c2cccc3c(NCCCCCCN4CCOCC4)ccc(c23)C1=O
Stokes shift (dichloromethane): 90 nm

CCc1cnc(NC(=O)c2cc(S(=O)(=O)N3CCOCC3)ccc2N(C)C2CCCC2)s1
serum alkaline phosphatase (mouse; 10 mg/kg, 3 doses): 72 IU/L

CCCCN1C(=O)c2cccc3c(NCCN4CCOCC4)ccc(c23)C1=O
Stokes shift (chloroform): 69 nm

N#Cc1cc(NC(=O)C2c3ccccc3C(=O)N(CC(F)(F)F)C2c2ccc[n+]([O-])c2)ccc1F (centres unmarked)
terminal half-life (human; median, interim, dose-independent): ~19 h

O=C(Nc1cnccc1-c1ccc([18F])nc1)c1ccnc(NC(=O)C2CC2)c1
SUV (ex vivo gamma counting; FVB/NJ mice, both sexes, cortex; intravenous, 120 min, mean, P-gp inhibitor pretreatment, together with: tariquidar 15 mg/kg iv): 0.072

O=C1c2sc(-c3ccc(N4CCC(CO)CC4)nc3F)nc2CCN1c1cccnc1
parent fraction (HPLC; rhesus monkey, plasma; intravenous, 14.98 min): 0.57

C=CC(=O)Nc1cc(Nc2nccc(-c3c[nH]c4ccccc34)n2)c(OC)cc1N(C)CCN(C)C
recovery (storage stability; human plasma; 30 d, on ice, LQC level): 51.1%

CC1(C)C(/C=C/C2=C(Cl)C(=C/C=C3/N(CCCCCC(=O)O)c4ccccc4C3(C)C)/C[N+](C)(C)C2)=[N+](CCCCCC(=O)O)c2ccccc21
Stokes shift (water): 22 nm

CN1CCCNC(=O)c2cccc(c2)C(=O)NCCCN(C)CCCNc2cccc3c2C(=O)c2cccc(c2C3=O)NCCC1
lesion area (histopathology; tumour-free KSN/Slc nude mice, liver and kidney; dose not given, 10 days): 2.14e+07 µm2

CC(C)[C@H](NC(=O)[C@H](Cc1c[nH]c2ccccc12)NC(=O)[C@H](CCCNC(=N)N)NC(=O)[C@H](CCCNC(=N)N)NC(=O)[C@@H](NC(=O)[C@@H](NC(=O)[C@H](CCCNC(=N)N)NC(=O)[C@@H](NC(=O)[C@@H](NC(=O)[C@H](CCCNC(=N)N)NC(=O)[C@H](CCCNC(=N)N)NC(=O)[C@@H](NC(=O)[C@H](Cc1c[nH]c2ccccc12)NC(=O)[C@H](CCCNC(=N)N)NC(=O)[C@H](CCCNC(=N)N)NC(=O)[C@@H](NC(=O)[C@H](CCCNC(=N)N)NC(=O)[C@H](CCCNC(=N)N)NC(=O)[C@@H](NC(=O)[C@H](Cc1c[nH]c2ccccc12)NC(=O)[C@H](CCCNC(=N)N)NC(=O)[C@@H](N)CCCNC(=N)N)C(C)C)C(C)C)C(C)C)C(C)C)C(C)C)C(C)C)C(C)C)C(=O)N[C@@H](CCCNC(=N)N)C(=O)N[C@@H](CCCNC(=N)N)C(=O)O
sodium (CD1 mouse, plasma; intravenous, 15 mg/kg, 24 h, [14C]-labelled compound): 162 mEq/L

CC[C@H](C)[C@H](NC(=O)[C@H](N)Cc1ccc(O)cc1)C(=O)N[C@H]1CSSC[C@@H](C(=O)N(C)[C@H](C(=O)N[C@@H](CCCCN)C(=O)N[C@@H](CCCCN)C(N)=O)[C@@H](C)CC)NC(=O)[C@H](CCCNC(=N)N)NC(=O)[C@H](Cc2c[nH]cn2)NC(=O)[C@H](C)NC(=O)CN(C)C(=O)[C@H](Cc2c[nH]c3ccccc23)NC(=O)[C@H](CC(=O)O)NC(=O)[C@H](CCC(N)=O)NC(=O)[C@H](Cc2cn(C)c3ccccc23)NC(=O)[C@H](C(C)C)NC1=O
concentration (SPR-based competition; cynomolgus monkey, vitreous; intravitreal, 500 µg single, 2160 h, mean of eyes): 100 to 120 nM

Cc1cc(C(=O)NC(C)(C)CO)cc(C)n1
plasma peak area (LC-MS metabolite profiling; Sprague-Dawley rat, both sexes, plasma; oral, 100 mg/kg of parent drug, 8 (unit not given); higher = more metabolite): 88800 a.u.

C=C(NC(=O)c1csc(-c2nc3c(cc2O)-c2nc(cs2)C(=O)NC(C(C)O)C(=O)NC(=C(C)OC)c2nc(cs2)C(=O)NC2c4nc(cs4)C(=O)NC(COC(=O)c4c5c6c(cccc6n4O)COC(=O)C(OC4CC(C)(O)C(N(C)C)C(C)O4)C2OC5)c2nc-3cs2)n1)C(N)=O (centres unmarked)
volume of distribution (cynomolgus monkey, female, plasma; intravenous infusion, 9 mg/kg single dose): 2.04 L/kg

Cn1cnc([N+](=O)[O-])c1Sc1ccccc1C(=O)NCCC(N)=O
remaining compound (LC-MS/MS; CD-1 mouse, CD-1 mouse blood; 1 µM, 30 min): 55.7%

CN(Cc1cc(C2CC2)on1)C(=O)c1cccc(-c2ccc(F)cc2)c1
remaining compound (male ICR/CD-1 mouse, liver microsomes; 2 µM, 60 min, pH 7.5, without ABT): 17.1%

Cc1ccc(OCC(=O)N(Cc2cccs2)c2ccn[nH]2)cc1
remaining compound (human plasma; 750 ng/mL, 0.5 h, 37 °C, unit not given; relative to: time zero): 86.2

C[C@H](C(=O)O)n1nc(Cn2cc3cc(OCC[18F])c(Cl)cc3n2)c2ccccc2c1=O
brain uptake (PET; C57BL/6 mouse male; 40 min): 0.35 %ID/g

CCCCN1C(=O)c2cccc3c(NCCCN4CCOCC4)ccc(c23)C1=O
Stokes shift (dioxane): 79 nm

[11CH3]N1CCC(NC(=O)c2cc(-c3c(O)cc(O)cc3Oc3ccc([N+](=O)[O-])cc3)on2)CC1
standardized uptake value (healthy female Wistar rats, blood; intravenous, 60 min): 0.4 ± 0.1 g/mL

Cc1cc(-c2ccc(C(=O)[C@@H]3CCCC[C@H]3C(=O)Nc3cnn4c3C(=O)NCC4)cc2)[nH]n1
cumulative recovery of radioactivity (human, urine and faeces; oral, 200 mg; relative to: dose): 83.1% and 82.6% and 90.4% and 80% and 86.3% and 88.8%

O=C([O-])CN1CCN(CC(=O)[O-])CCN(C(CO)C(O)CO)CCN(CC(=O)[O-])CC1.[Dy+3] (centres unmarked)
lanthanide concentration (cynomolgus monkey, cerebrum; dose not given, day 5): 0.026 ± 0.01 nmol/g

O=S1(=O)CC2CCCCC2CS1 (centres unmarked)
solubility (phase solubility, NMR; water; 25 °C, together with: hydroxypropyl-β-cyclodextrin 295 mM): 30.6 mM (≈ 6310 µg/mL)

O=C(Nc1cnccc1-c1ccc([18F])cc1)c1ccnc(NC(=O)C2CC2)c1
mean SUV (ex vivo gamma counting; GSK-3β transgenic mice, late-stage, lung; intravenous, 120 min): 0.27

CCCCCCCC(=O)OC[C@H](NC(=O)[C@H](CO)NC(=O)CN)C(=O)N[C@@H](Cc1ccccc1)C(=O)N[C@@H](CC(C)C)C(=O)N[C@@H](CO)C(=O)N1CCC[C@H]1C(=O)N[C@@H](CCC(=O)O)C(=O)N[C@@H](Cc1cnc[nH]1)C(=O)N[C@@H](CCC(N)=O)C(=O)N[C@@H](CCCNC(=N)N)C(=O)N[C@H](C(=O)N[C@@H](CCC(N)=O)C(=O)N[C@@H](CCC(N)=O)C(=O)N[C@@H](CCCNC(=N)N)C(=O)N[C@@H](CCCCN)C(=O)N[C@@H](CCC(=O)O)C(=O)N[C@@H](CO)C(=O)N[C@@H](CCCCN)C(=O)N[C@@H](CCCCN)C(=O)N1CCC[C@H]1C(=O)N1CCC[C@H]1C(=O)N[C@@H](C)C(=O)N[C@@H](CCCCN)C(=O)N[C@@H](CC(C)C)C(=O)N[C@@H](CCC(N)=O)C(=O)N1CCC[C@H]1C(=O)N[C@@H](CCCNC(=N)N)C(=O)O)C(C)C
blood pressure (manual cuff, measured: dBP; human, chronic HFrEF patients; intravenous infusion, 0.1 µg/kg/min over 120 min, follow-up day 2-5, median): 70 mm Hg

OCC1OC(n2cnc3c(NCc4ccc(Br)s4)ncnc32)C(O)C1O (centres unmarked)
fraction unbound (equilibrium dialysis; mouse plasma; 5 µg/mL, 4 h, pH 7.4): 0.066

N#C[C@@H]1CC(F)(F)CN1C(=O)CNC(=O)c1ccnc2c(NC(=O)CCOCCOCCOCCOCCOCCOCCNC(=O)[C@H](CCCCNC(=O)CN3CCN(CC(=O)[O-])CCN(CC(=O)[O-])CCN(CC(=O)[O-])CC3)NC(=O)CCCc3ccc(I)cc3)cccc12.[177Lu+3]
radiochemical stability (human serum; 1 h, 37 °C, 177Lu-labelled): 99.08 ± 0.8%

Cc1nc(N)nc2c1C(=O)N[C@@H](c1ccc(F)cc1-c1cccc(O[11CH3])n1)C2
SUV (ex vivo biodistribution; healthy mice, blood; 60 min post-injection, baseline, vehicle pre-treatment): 0.5 ± 0.1

COCC1CN(C2CCN(c3cc(OC)c(Nc4ncc(Br)c(Nc5ccc6c(c5P(C)(C)=O)OCCO6)n4)cc3C)CC2)C1
AUC(0-t) (EGFR-mutant NSCLC patients, plasma; oral, 150 mg single dose, geometric mean): 15300 ng·h/mL

O=C(NS(=O)(=O)c1cccs1)c1cc2ccccc2n1Cc1ccc(Br)c2ccccc12
body weight (KM mouse, chronic hyperuricaemia model; dose not given, day 12): 32.8 g and 31.2 g and 32 g and 34.6 g and 30.4 g

COc1ccc(C(N)=O)cn1
plasma concentration (Han Wistar rats, male, plasma; oral, 30 mg/kg, 8.00 h): 79.8 nM

N#C[C@@H]1CC(F)(F)CN1C(=O)CNC(=O)c1ccnc2c(NC(=O)C(CCCCNC(=O)CCOCCOCCOCCOCCOCCOCCNC(=O)CN3CCN(CC(=O)[O-])CCN(CC(=O)[O-])CCN(CC(=O)[O-])CC3)NC(=O)CCCc3ccc(I)cc3)cccc12.[68Ga+3] (some centres unmarked)
radiochemical stability (PBS; 120 min, 37 °C, 68Ga-labelled): 99.21 ± 0.7%

COc1cccc(OC)c1-c1cc(C(=O)NC2(C(=O)O)C3CC4CC(C3)CC2C4)nn1-c1ccc(C(=O)N(C)CCCN(C)C(=O)[C@H](CCCCNC(=O)[C@H](CC(C)C)NC(=O)C2OC2C(=O)O)NC(=O)CN2CCN(CC(=O)[O-])CCN(CC(=O)[O-])CCN(CC(=O)[O-])CC2)cc1C(C)C.[177Lu+3] (mixture of isomers)
tumour-to-stomach ratio (mouse HT-29 xenograft; 72 h, biodistribution; relative to: tumour over stomach): 28.8

O=C1c2sc(-c3ccc(N4CCC(F)C4)nc3F)nc2CCN1c1cccnc1 (centres unmarked)
concentration (CD1 mouse, plasma; i.v., dose not given, 0.5 h): 86.4 ng/mL and 109 ng/mL and 101 ng/mL

C/C(N)=N/C(=N\S(=O)(=O)c1ccc(C(F)(F)F)cc1)N1C[C@H](c2ccccc2)C(c2ccc(Cl)cc2)=N1
Tmax (Beagle dog, plasma; oral, 6 mg/kg, observed value): 4 h

CC(C)(O)c1ncc([S@](N)(=O)=NC(=O)Nc2c3c(cc4c2CCC4)CCC3)s1
subjects with gastrointestinal adverse events (healthy human subjects; oral, 300 mg, spray-dried dispersion): 17%

C=CC(=O)Nc1cc(Nc2nccc(-c3cn(C)c4ccccc34)n2)c(OC)cc1N(C)CCNC
remaining compound (human, dried blood spots; 72 h, room temperature, high QC level): 64.2%

CN(O)C(=O)CCC(=O)NCCCN(CCCCN(CCCNC(=O)CCC(=O)N(C)O)C(=O)CCC(=O)N(C)O)C(=O)CCC(=O)N(C)O.[89Zr]
intact compound (0.9 % NaCl saline; 1 days, pH 4.5, 37 °C): 98.9 ± 0.6%

COc1cccc(OC)c1-c1cc(C(=O)NC2(C(=O)O)C3CC4CC(C3)CC2C4)nn1-c1ccc(C(=O)N(C)CCOCCOCCN(C)C(=O)[C@H](CCCCNC(=O)[C@H](CC(C)C)NC(=O)C2OC2C(=O)O)NC(=O)CN2CCN(CC(=O)[O-])CCN(CC(=O)[O-])CCN(CC(=O)[O-])CC2)cc1C(C)C.[177Lu+3] (mixture of isomers)
tumour-to-stomach ratio (mouse HT-29 xenograft; 168 h, biodistribution; relative to: tumour over stomach): 25.1

CCCCN1C(=O)c2cccc3c(NCCCCCN4CCOCC4)ccc(c23)C1=O
Stokes shift (acetonitrile): 88 nm

CC(C)Cc1ccc(C(C)C(=O)N[C@@H](CCCCNC(=O)CCOCCOCCOCCOCCOCCOCCNC(=O)CN2CCN(CC(=O)[O-])CCN(CC(=O)[O-])CCN(CC(=O)[O-])CC2)C(=O)Nc2cccc3c(C(=O)NCC(=O)N4CC(F)(F)C[C@H]4C#N)ccnc23)cc1.[177Lu+3] (some centres unmarked)
radiochemical stability (human serum; 1 h, 37 °C, 177Lu-labelled): 99.1 ± 1%

CCCCN1C(=O)c2cccc3c(NCCCCCCCCCCN4CCOCC4)ccc(c23)C1=O
Stokes shift (dichloromethane): 87 nm

CCCN(C)c1cc(C(F)(F)F)nc(SCCC(=O)NCc2ccco2)n1
plasma LDH (Wistar rat, plasma; intraperitoneal, 25 mg/kg, 2 h post-dose; relative to: vehicle control): no effect

A few entries again:
Cc1cc(C(=O)NC(C)(C)CO)cc(C)n1
plasma peak area (LC-MS metabolite profiling; Sprague-Dawley rat, both sexes, plasma; oral, 100 mg/kg of parent drug, 8 (unit not given); higher = more metabolite): 88800 a.u.

[11CH3]N1CCC(NC(=O)c2cc(-c3c(O)cc(O)cc3Oc3ccc([N+](=O)[O-])cc3)on2)CC1
standardized uptake value (healthy female Wistar rats, blood; intravenous, 60 min): 0.4 ± 0.1 g/mL

CCCCN1C(=O)c2cccc3c(NCCCN4CCOCC4)ccc(c23)C1=O
Stokes shift (dioxane): 79 nm
